Measurements pooled from the literature.
Every numbered part comes from another study and shows a few of its results, in no order.
Sequence of UniProt Q04759 (whole entry, looked up): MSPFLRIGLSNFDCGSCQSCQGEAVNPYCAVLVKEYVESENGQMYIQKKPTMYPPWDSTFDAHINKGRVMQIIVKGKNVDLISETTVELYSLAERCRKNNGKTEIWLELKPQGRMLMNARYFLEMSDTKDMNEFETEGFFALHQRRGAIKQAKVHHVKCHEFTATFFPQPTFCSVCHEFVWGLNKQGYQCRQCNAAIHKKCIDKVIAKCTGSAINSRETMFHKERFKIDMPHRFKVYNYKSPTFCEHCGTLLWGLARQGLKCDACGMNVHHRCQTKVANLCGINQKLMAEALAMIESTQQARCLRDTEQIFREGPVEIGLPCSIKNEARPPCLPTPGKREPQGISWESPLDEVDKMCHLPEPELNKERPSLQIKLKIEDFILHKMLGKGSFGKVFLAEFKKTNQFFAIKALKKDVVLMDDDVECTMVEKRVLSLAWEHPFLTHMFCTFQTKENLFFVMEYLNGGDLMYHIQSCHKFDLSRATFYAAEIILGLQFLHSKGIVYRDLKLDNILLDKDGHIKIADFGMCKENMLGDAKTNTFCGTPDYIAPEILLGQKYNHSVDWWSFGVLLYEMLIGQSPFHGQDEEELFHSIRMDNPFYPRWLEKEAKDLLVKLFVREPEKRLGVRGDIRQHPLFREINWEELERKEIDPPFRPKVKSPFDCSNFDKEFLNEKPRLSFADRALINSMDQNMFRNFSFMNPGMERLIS
Sequence of UniProt P07949 (whole entry, unmodified, looked up): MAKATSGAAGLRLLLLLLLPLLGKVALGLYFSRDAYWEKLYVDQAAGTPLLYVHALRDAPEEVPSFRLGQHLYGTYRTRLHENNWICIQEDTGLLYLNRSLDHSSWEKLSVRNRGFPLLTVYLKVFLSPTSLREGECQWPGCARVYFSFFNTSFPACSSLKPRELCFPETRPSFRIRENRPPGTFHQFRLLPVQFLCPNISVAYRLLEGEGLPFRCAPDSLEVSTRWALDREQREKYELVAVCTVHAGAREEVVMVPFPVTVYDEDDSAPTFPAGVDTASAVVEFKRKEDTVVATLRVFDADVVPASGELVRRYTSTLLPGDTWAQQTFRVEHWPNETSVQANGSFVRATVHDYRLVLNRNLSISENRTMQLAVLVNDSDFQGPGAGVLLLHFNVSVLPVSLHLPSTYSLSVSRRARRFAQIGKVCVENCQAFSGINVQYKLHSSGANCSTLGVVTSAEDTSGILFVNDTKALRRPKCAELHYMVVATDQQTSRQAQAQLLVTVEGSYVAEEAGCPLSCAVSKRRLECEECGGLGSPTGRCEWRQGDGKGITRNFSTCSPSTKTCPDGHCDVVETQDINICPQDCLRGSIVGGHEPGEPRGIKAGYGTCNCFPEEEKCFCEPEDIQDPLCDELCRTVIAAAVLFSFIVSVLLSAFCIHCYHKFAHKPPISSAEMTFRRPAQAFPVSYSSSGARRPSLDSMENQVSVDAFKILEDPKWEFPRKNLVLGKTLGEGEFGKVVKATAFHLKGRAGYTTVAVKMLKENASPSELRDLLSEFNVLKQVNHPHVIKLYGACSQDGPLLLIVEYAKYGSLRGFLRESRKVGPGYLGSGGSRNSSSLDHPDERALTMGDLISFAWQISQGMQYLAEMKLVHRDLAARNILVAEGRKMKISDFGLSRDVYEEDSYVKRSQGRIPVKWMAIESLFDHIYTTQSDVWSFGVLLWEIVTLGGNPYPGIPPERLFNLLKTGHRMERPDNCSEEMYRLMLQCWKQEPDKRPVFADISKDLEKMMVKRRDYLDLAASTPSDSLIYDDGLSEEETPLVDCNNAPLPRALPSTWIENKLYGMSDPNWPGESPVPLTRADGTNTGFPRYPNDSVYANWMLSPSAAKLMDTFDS
Sequence of UniProt P78362 (whole entry, looked up): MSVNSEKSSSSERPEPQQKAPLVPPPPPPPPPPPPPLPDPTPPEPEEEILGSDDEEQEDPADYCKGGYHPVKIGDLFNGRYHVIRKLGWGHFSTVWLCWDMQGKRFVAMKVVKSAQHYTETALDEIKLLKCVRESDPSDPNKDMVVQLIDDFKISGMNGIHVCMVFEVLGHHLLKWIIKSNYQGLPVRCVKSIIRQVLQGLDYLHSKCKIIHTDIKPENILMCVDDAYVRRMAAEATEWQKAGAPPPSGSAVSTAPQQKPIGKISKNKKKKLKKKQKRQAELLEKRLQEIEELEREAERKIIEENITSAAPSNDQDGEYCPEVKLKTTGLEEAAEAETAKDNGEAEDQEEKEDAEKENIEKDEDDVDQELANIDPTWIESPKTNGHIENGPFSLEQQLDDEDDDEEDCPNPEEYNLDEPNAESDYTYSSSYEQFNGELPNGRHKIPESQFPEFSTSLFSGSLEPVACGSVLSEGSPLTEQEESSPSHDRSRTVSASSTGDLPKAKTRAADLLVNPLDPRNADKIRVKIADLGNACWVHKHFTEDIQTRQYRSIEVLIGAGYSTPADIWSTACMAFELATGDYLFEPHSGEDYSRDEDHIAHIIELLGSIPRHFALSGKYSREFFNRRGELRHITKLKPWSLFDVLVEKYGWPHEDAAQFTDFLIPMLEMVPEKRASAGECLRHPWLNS
Sequence of UniProt P10721 (whole entry, unmodified, looked up): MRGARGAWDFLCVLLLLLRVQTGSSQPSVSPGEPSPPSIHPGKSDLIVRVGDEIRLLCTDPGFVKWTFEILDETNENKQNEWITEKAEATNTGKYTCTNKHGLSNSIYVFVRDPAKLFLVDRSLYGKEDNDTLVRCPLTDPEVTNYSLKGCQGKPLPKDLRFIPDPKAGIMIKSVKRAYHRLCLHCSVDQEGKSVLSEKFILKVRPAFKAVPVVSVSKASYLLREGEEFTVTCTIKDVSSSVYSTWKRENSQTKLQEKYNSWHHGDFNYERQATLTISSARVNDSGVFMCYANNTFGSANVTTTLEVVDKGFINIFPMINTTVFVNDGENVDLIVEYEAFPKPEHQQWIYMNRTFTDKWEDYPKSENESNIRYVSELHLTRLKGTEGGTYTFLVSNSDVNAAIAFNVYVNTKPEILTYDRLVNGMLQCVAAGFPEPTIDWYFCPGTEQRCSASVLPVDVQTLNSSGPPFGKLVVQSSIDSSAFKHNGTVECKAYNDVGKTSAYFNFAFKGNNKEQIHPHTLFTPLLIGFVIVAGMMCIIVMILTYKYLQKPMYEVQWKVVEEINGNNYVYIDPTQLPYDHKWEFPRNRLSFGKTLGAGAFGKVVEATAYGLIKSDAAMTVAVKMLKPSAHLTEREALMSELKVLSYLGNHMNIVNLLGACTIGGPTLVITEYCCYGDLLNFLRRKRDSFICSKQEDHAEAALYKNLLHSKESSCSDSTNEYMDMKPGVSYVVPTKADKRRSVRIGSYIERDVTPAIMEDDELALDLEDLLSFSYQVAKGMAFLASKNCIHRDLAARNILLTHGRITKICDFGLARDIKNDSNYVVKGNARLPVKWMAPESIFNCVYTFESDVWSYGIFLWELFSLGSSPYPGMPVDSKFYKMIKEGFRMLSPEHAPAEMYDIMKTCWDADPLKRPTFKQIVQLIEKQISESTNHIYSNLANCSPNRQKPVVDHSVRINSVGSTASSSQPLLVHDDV

Series 1 — observed: kinase activity
Structure (SMILES): CNc1ncc2cc(-c3cc(OC)cc(OC)c3Cl)c(=O)n(CCc3ccc(NC(=O)C(C#N)=CC(C)(C)N4CCOCC4)cc3)c2n1
| target | concentration | inhibition [%] |
| --- | --- | --- |
| NUAK family SNF1-like kinase 1 (NUAK1, Homo sapiens, UniProt O60285) | 1 µM | 3 |
| Dual specificity protein kinase CLK4 (CLK4, Homo sapiens, UniProt Q9HAZ1) | 0.1 µM | -2 |
| Tyrosine-protein kinase SYK (SYK, Homo sapiens, UniProt P43405) | 1 µM | 1 |
| Protein kinase C theta type (PRKCQ, Homo sapiens, UniProt Q04759) | 1 µM | 4 |
| High affinity nerve growth factor receptor (NTRK1, Homo sapiens, UniProt P04629) | 0.1 µM | -1 |
| Ephrin type-B receptor 1 (EPHB1, Homo sapiens, UniProt P54762) | 1 µM | -2 |
| Fibroblast growth factor receptor 4 (FGFR4, Homo sapiens, UniProt P22455) | 0.1 µM | 62 |
| Proto-oncogene tyrosine-protein kinase receptor Ret (RET, Homo sapiens, UniProt P07949) | 0.1 µM | 11 |
| SRSF protein kinase 3 (SRPK3, Homo sapiens, UniProt Q9UPE1) | 0.1 µM | 1 |
| Fibroblast growth factor receptor 2 (FGFR2, Homo sapiens, UniProt P21802) | 1 µM | 98 |
| Protein kinase C epsilon type (PRKCE, Homo sapiens, UniProt Q02156) | 0.1 µM | 1 |
| Serine/threonine-protein kinase Nek7 (NEK7, Homo sapiens, UniProt Q8TDX7) | 0.1 µM | -2 |
| RAF proto-oncogene serine/threonine-protein kinase (RAF1, Homo sapiens, UniProt P04049) | 0.1 µM | 13 |
| Macrophage-stimulating protein receptor (MST1R, Homo sapiens, UniProt Q04912) | 0.1 µM | 1 |
| RAC-beta serine/threonine-protein kinase (AKT2, Homo sapiens, UniProt P31751) | 0.1 µM | 1 |
| Cyclin-dependent kinase 5 (CDK5, Homo sapiens, UniProt Q00535) | 1 µM | 3 |
| MAP/microtubule affinity-regulating kinase 3 (MARK3, Homo sapiens, UniProt P27448) | 1 µM | 8 |
| Inhibitor of nuclear factor kappa-B kinase subunit alpha (CHUK, Homo sapiens, UniProt O15111) | 0.1 µM | 7 |
| Tyrosine-protein kinase Fes/Fps (FES, Homo sapiens, UniProt P07332) | 0.1 µM | 0 |

Series 2 — concentration: 1 µM
SMILES: CC[C@@]1(c2cccc(-c3c(F)cncc3OC)c2)C2=C(Nc3n[nH]cc31)[C@H](F)C(C)(C)CC2=O (single isomer, unassigned)
| target | observed | method | reference | remaining binding [%] |
| --- | --- | --- | --- | --- |
| Fibroblast growth factor receptor 1 (FGFR1, Homo sapiens, UniProt P11362) | binding | competition with immobilised ligand |  | 96 |
| Protein kinase C theta type (PRKCQ, Homo sapiens, UniProt Q04759) | binding | competition with immobilised ligand |  | 100 |
| Serine/threonine-protein kinase 3 (STK3, Homo sapiens, UniProt Q13188) | kinase binding | KINOMEscan | DMSO control | 100 |
| Interferon-induced, double-stranded RNA-activated protein kinase (EIF2AK2, Homo sapiens, UniProt P19525) | kinase binding | KINOMEscan | DMSO control | 94 |
| Serine/threonine-protein kinase Nek10 (NEK10, Homo sapiens, UniProt Q6ZWH5) | kinase binding | KINOMEscan | DMSO control | 14 |
| SRSF protein kinase 2 (SRPK2, Homo sapiens, UniProt P78362) | kinase binding | KINOMEscan | DMSO control | 87 |
| Serine/threonine-protein kinase WNK3 (WNK3, Homo sapiens, UniProt Q9BYP7) | kinase binding | KINOMEscan | DMSO control | 80 |
| Tyrosine-protein kinase receptor UFO (AXL, Homo sapiens, UniProt P30530) | kinase binding | KINOMEscan | DMSO control | 100 |
| Fibroblast growth factor receptor 4 (FGFR4, Homo sapiens, UniProt P22455) | binding | competition with immobilised ligand |  | 100 |
| Ephrin type-A receptor 7 (EPHA7, Homo sapiens, UniProt Q15375) | kinase binding | KINOMEscan | DMSO control | 82 |
| Serine/threonine-protein kinase Nek4 (NEK4, Homo sapiens, UniProt P51957) | binding | competition with immobilised ligand |  | 62 |
| LIM domain kinase 2 (LIMK2, Homo sapiens, UniProt P53671) | binding | competition with immobilised ligand |  | 100 |
| Interleukin-1 receptor-associated kinase 4 (IRAK4, Homo sapiens, UniProt Q9NWZ3) | binding | competition with immobilised ligand |  | 84 |
| Interleukin-1 receptor-associated kinase 1 (IRAK1, Homo sapiens, UniProt P51617) | kinase binding | KINOMEscan | DMSO control | 100 |
| Fibroblast growth factor receptor 3 (FGFR3, Homo sapiens, UniProt P22607) | kinase binding | KINOMEscan | DMSO control | 100 |
| Calcium/calmodulin-dependent protein kinase type II subunit beta (CAMK2B, Homo sapiens, UniProt Q13554) | binding | competition with immobilised ligand |  | 88 |
| Bone morphogenetic protein receptor type-1A (BMPR1A, Homo sapiens, UniProt P36894) | kinase binding | KINOMEscan | DMSO control | 100 |

Series 3 — observed: thermal unfolding; method: differential scanning fluorimetry; concentration: 5.5 µM; direction: higher = more unfolded
SMILES: C[C@@H]1CN(c2ccc(-c3cc(C(=O)NCCOCCOCCOCCOCCNC(=O)Cn4cc(-c5[nH]cc(C(=O)N[C@@H](CC(N)=O)c6ccc(F)c(Cl)c6)c5-c5ccc(Cl)cc5F)cn4)ccc3F)cc2NC(=O)c2c[nH]c(=O)cc2C(F)(F)F)C[C@H](C)N1C
DCAF1: DDB1- and CUL4-associated factor 1 (DCAF1, Homo sapiens, UniProt Q9Y4B6)
Sequence of UniProt Q9Y4B6 (whole entry, looked up): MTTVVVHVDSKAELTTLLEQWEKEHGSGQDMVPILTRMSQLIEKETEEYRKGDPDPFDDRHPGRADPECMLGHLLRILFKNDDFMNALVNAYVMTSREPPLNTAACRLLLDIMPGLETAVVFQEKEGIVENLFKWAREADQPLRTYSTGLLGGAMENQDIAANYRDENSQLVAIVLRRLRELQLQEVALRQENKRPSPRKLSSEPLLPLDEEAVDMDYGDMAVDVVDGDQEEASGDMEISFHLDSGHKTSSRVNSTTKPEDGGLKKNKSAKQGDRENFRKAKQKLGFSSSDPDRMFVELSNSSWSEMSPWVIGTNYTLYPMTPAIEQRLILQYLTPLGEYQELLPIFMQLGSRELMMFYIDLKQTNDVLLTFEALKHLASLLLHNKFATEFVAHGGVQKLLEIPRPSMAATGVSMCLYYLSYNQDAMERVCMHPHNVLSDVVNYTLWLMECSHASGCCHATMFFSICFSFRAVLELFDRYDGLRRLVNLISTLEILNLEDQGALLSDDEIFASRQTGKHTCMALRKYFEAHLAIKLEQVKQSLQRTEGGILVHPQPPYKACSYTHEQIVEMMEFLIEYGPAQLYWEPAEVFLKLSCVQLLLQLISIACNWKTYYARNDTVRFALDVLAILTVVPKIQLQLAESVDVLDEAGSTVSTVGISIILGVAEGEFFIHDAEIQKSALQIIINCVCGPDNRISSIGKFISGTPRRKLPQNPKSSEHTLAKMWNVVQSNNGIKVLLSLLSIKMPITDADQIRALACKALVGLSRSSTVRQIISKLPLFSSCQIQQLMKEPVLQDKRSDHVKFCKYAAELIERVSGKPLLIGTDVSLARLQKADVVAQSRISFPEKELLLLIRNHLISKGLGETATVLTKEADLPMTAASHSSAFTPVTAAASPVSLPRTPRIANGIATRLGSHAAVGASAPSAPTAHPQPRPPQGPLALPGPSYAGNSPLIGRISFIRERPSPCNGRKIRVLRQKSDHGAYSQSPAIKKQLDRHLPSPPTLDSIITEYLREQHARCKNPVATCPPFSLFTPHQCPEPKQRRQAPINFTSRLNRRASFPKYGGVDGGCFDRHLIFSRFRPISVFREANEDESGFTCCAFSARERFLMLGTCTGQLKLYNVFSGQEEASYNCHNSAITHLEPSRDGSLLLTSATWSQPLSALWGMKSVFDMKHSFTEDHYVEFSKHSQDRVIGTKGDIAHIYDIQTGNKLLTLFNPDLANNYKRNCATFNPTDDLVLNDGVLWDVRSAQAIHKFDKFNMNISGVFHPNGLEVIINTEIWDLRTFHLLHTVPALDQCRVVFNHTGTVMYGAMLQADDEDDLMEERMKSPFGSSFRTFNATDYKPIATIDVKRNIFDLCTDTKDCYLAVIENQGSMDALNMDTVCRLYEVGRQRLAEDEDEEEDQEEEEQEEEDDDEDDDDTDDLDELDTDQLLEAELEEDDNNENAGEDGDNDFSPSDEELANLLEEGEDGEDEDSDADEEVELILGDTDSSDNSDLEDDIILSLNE
WDR5: WD repeat-containing protein 5 (WDR5, Homo sapiens, UniProt P61964)
| target | temperature | SYPRO Orange fluorescence |
| --- | --- | --- |
| DCAF1 | 27 °C | 7730 a.u. |
| DCAF1 | 76.01 °C | 48200 a.u. |
| WDR5 | 77.01 °C | 14800 a.u. |
| DCAF1 | 72.81 °C | 51600 a.u. |
| WDR5 | 73.61 °C | 9040 a.u. |
| DCAF1 | 29.6 °C | 8170 a.u. |
| DCAF1 | 75.61 °C | 48700 a.u. |
| DCAF1 | 84.21 °C | 40600 a.u. |
| WDR5 | 34.2 °C | 14400 a.u. |
| DCAF1 | 92.41 °C | 32800 a.u. |
| WDR5 | 59.81 °C | 10500 a.u. |

Series 4 — observed: binding; method: competition with immobilised ligand; concentration: 1 µM
SMILES: COc1cc(-c2nc3ccc(C(=O)NCCCN(C)C)cc3n2C2CCC2)cc(OC)c1OC
| target | remaining binding [%] |
| --- | --- |
| Tyrosine-protein kinase Blk (BLK, Homo sapiens, UniProt P51451) | 84 |
| Death-associated protein kinase 1 (DAPK1, Homo sapiens, UniProt P53355) | 91 |
| Cyclin-dependent kinase 9 (CDK9, Homo sapiens, UniProt P50750) | 94 |
| Dual specificity mitogen-activated protein kinase kinase 3 (MAP2K3, Homo sapiens, UniProt P46734) | 77 |
| Mast/stem cell growth factor receptor Kit (KIT, Homo sapiens, UniProt P10721) | 97 |
| Tyrosine-protein kinase Fer (FER, Homo sapiens, UniProt P16591) | 100 |
| Tyrosine-protein kinase ABL1, non-phosphorylated (ABL1, Homo sapiens, UniProt P00519, H396P) | 14 |
| Proto-oncogene tyrosine-protein kinase receptor Ret (RET, Homo sapiens, UniProt P07949, V804M) | 57 |
| MAP/microtubule affinity-regulating kinase 4 (MARK4, Homo sapiens, UniProt Q96L34) | 69 |
| Tyrosine-protein kinase Fyn (FYN, Homo sapiens, UniProt P06241) | 61 |
| Tyrosine-protein kinase ABL1, non-phosphorylated (ABL1, Homo sapiens, UniProt P00519, F317L) | 44 |
| SRSF protein kinase 2 (SRPK2, Homo sapiens, UniProt P78362) | 100 |
| Mast/stem cell growth factor receptor Kit (KIT, Homo sapiens, UniProt P10721, V559D) | 100 |
| Serine/threonine-protein kinase DCLK3 (DCLK3, Homo sapiens, UniProt Q9C098) | 100 |
| Serine/threonine-protein kinase 17A (STK17A, Homo sapiens, UniProt Q9UEE5) | 100 |
| Platelet-derived growth factor receptor beta (PDGFRB, Homo sapiens, UniProt P09619) | 100 |
| Mitogen-activated protein kinase 8 (MAPK8, Homo sapiens, UniProt P45983) | 62 |
| Hormonally up-regulated neu tumor-associated kinase (HUNK, Homo sapiens, UniProt P57058) | 97 |
| Ribosomal protein S6 kinase alpha-6, N-terminal kinase domain (RPS6KA6, Homo sapiens, UniProt Q9UK32) | 91 |
| Tyrosine-protein kinase Tec (TEC, Homo sapiens, UniProt P42680) | 96 |
| Serine/threonine-protein kinase RIO2 (RIOK2, Homo sapiens, UniProt Q9BVS4) | 88 |
| Serine/threonine-protein kinase Sgk2 (SGK2, Homo sapiens, UniProt Q9HBY8) | 62 |
| Cyclin-dependent kinase 11A (CDK11A, Homo sapiens, UniProt Q9UQ88) | 100 |
| Ribosomal protein S6 kinase alpha-5, C-terminal kinase domain (RPS6KA5, Homo sapiens, UniProt O75582) | 100 |
| Protein kinase C delta type (PRKCD, Homo sapiens, UniProt Q05655) | 69 |

A few entries again (series 4):
| target | remaining binding [%] |
| --- | --- |
| Dual specificity mitogen-activated protein kinase kinase 3 (MAP2K3, Homo sapiens, UniProt P46734) | 77 |
| Platelet-derived growth factor receptor beta (PDGFRB, Homo sapiens, UniProt P09619) | 100 |
| Cyclin-dependent kinase 11A (CDK11A, Homo sapiens, UniProt Q9UQ88) | 100 |
| Ribosomal protein S6 kinase alpha-5, C-terminal kinase domain (RPS6KA5, Homo sapiens, UniProt O75582) | 100 |
| SRSF protein kinase 2 (SRPK2, Homo sapiens, UniProt P78362) | 100 |
| Ribosomal protein S6 kinase alpha-6, N-terminal kinase domain (RPS6KA6, Homo sapiens, UniProt Q9UK32) | 91 |
| Cyclin-dependent kinase 9 (CDK9, Homo sapiens, UniProt P50750) | 94 |
| MAP/microtubule affinity-regulating kinase 4 (MARK4, Homo sapiens, UniProt Q96L34) | 69 |
| Tyrosine-protein kinase Blk (BLK, Homo sapiens, UniProt P51451) | 84 |
| Death-associated protein kinase 1 (DAPK1, Homo sapiens, UniProt P53355) | 91 |
| Mast/stem cell growth factor receptor Kit (KIT, Homo sapiens, UniProt P10721, V559D) | 100 |
